Experimental data of several laboratories.
Each line is one published result; not all experiments were run side by side. Numbers after ± are the reported error.

Compound	test	test system	setting	how to read	AUC(0-inf)
FC(F)(F)c1ccc(CNc2ccc(Cc3c[nH]c4ncc(Cl)cc34)cn2)cn1	refers to: total radioactivity	healthy human male, plasma	oral, 400 mg [14C]-labelled	–	163 µg·h/mL
Cn1cncc1[C@@](N)(c1ccc(Cl)cc1)c1ccc2c(c1)c(-c1cccc(Cl)c1)cc(=O)n2C	–	human, plasma	oral, dose not given, with: omeprazole	–	0.372 µg·h/mL
Cn1c(=O)oc2ccc(-c3ccc(C[C@@H](C#N)NC(=O)[C@@H]4CNCCCO4)cc3)cc21	–	human, moderate renal impairment, plasma	oral, 25 mg single dose, geometric least squares mean	–	4.3 µg·h/mL
C=CC(=O)N(C)CCOc1c(N)ncnc1-c1cc(F)cc(NC(=O)c2ccc(C3CC3)cc2F)c1C	–	human, fed, whole blood	oral, 60 mg single dose, food effect study, mean	–	0.214 µg·h/mL
Nc1ccn([C@@H]2O[C@H](CO)[C@@H](O)[C@@H]2O)c(=O)n1	–	human	subcutaneous, 20 mg, cycle 1 day 2, given alone	–	0.0705 µg·h/mL
COC(=O)N[C@@H](C)CNc1nccc(-c2cn(C(C)C)nc2-c2cc(Cl)cc(NS(C)(=O)=O)c2F)n1	–	human, plasma	oral, 50 mg, with: posaconazole 400 mg twice daily	geometric mean	5.81 µg·h/mL
CC(C)[C@@H]1CC[C@@H](C)C[C@H]1OC(=O)O[C@@H](C)OC(=O)[C@H]1[C@@H]2C[C@H](F)[C@@](N)(C(=O)O)[C@@H]21	–	human, plasma	oral, 20 mg single dose, fasted	–	0.0869 µg·h/mL
Cn1nnc2c(C(N)=O)ncn2c1=O	–	human patients, plasma	oral, 40 mg/m2, day 5, dose level DL5, median, with: talazoparib 600 µg/m2	–	6.38 µg·h/mL
Cc1cc(Nc2cc3ncccc3c(N[C@@H]3C[C@H]4CC[C@@H](C3)N4CCC#N)n2)n[nH]1	–	human, plasma	10 mg single dose, mean	–	0.00087 µg·h/mL
C[C@H](Oc1ccc(Br)cc1-c1ccon1)C(=O)O	–	healthy male humans, plasma	oral, 200 mg once daily, day 1	–	46.5 µg·h/mL
NC[C@@]1(CC(=O)O)[C@@H]2CC[C@H]3C[C@@H]2[C@@H]1C3	–	human, normal renal function, plasma	oral, 20 mg single dose, geometric mean	–	1.79 µg·h/mL
Cc1cc(C)c(CNC(=O)c2cc(Cl)c3c(c2C)O[C@@](C)([C@H]2CC[C@H](N(C)C)CC2)O3)c(=O)[nH]1	mean	healthy male humans, plasma	oral, 25 mg, day 11, with: itraconazole	–	3.34 µg·h/mL
Cc1[nH]c(/C=C2\C(=O)Nc3ccc(F)cc32)c(C)c1C(=O)N[C@H]1CCN(C(=O)N(C)C)C1	–	human patients, plasma	oral, 200 mg single dose, with: everolimus 5 mg	–	18.5 ± 17.5 µg·h/mL
NC(CO)(CO)CCc1ccc(Sc2cccc(OCc3ccccc3)c2)cc1Cl	–	human, whole blood	oral, 3 mg, given alone	–	0.145 µg·h/mL
CN(C)C(=O)c1cc2cnc(Nc3ccc(N4CCNCC4)cn3)nc2n1C1CCCC1	–	human, normal renal function, plasma	oral, 400 mg, single dose, geometric mean	–	4.1 µg·h/mL
CC(C)n1c(Nc2cccnc2)nc2cnc(Nc3ccc(N4CCN(C)CC4)cc3)nc21	–	human, male	oral, 100 mg, alone, geometric mean	–	0.88 µg·h/mL
N[C@](CO)(CCc1ccc(Sc2cccc(OCc3ccccc3)c2)cc1Cl)COP(=O)(O)O	–	human, blood	3 mg MOC, with: cyclosporin 100 mg b.i.d.	–	0.178 µg·h/mL
C=CC(=O)NC1CCN(c2ncc3ncnc(Nc4ccc(Oc5ccc6c(c5)ncn6C)c(C)c4)c3n2)CC1	–	human, male, plasma	oral, 240 mg, fasted, adjusted geometric mean	–	47.6 µM·h
CNC(=O)c1ccc(-c2cnc3ncc(Cc4ccc5ncccc5c4)n3n2)cc1F	–	human moderate hepatic impairment NCI	oral, 200 mg single dose, mean	–	7.99 µg·h/mL
N#Cc1cccc(-c2ccc3ncc(-c4cc(F)cc(F)c4)c(N4CCC(N)CC4)c3c2)c1O	–	male human, plasma	oral, 20 mg single, geometric mean	–	2.39 µg·h/mL
CNC(=O)c1c(C)oc2cc(Oc3ncnc4cc(OC)c(OC)cc34)ccc12	–	human, moderate hepatic impairment (Child-Pugh), plasma	oral, 2 mg, single dose	–	5.21 µg·h/mL
Cc1nc2ccc(F)cc2n1-c1nc(N)c(F)c(Nc2ccc(C(F)(F)F)cc2)n1	–	human patients, plasma	oral, 300 mg twice weekly, cycles 1 and 2 pooled	–	18 µg·h/mL
O=C(NC[C@H]1CN(c2ccc(N3CCOCC3=O)cc2)C(=O)O1)c1ccc(Cl)s1	–	human with normal renal function, plasma	oral, 10 mg single dose, geometric mean	–	1.75 µg·h/mL
C[C@@H](Cn1ccc(-c2ccc(C#N)c(Cl)c2)n1)NC(=O)c1cc([C@@H](C)O)[nH]n1	–	human, fasted, plasma	oral solution, 300 mg 14C-darolutamide, geometric mean	–	7110 ng⋅h/mL
CC1=C(c2cccc(O)c2)[C@H](c2ccc(OCCN3CC(CF)C3)cc2)Oc2ccc(O)cc21	–	human, plasma	oral, 1000 mg single dose, geometric mean	–	2.27 µg·h/mL

Compound	test	test system	setting	how to read	AUC(0-inf)
C[C@@H](Oc1ccc(S(C)(=O)=O)cc1C(=O)N1C[C@@H]2C[C@]2(c2cc(C(F)(F)F)on2)C1)C(F)(F)F	–	young humans, plasma	oral, 75 mg single dose, geometric mean	–	34.1 µM·h
C[C@H]1CN(C(=O)CC#N)[C@]12CCN(c1ncnc3[nH]ccc13)C2	–	healthy human, plasma	oral, 3 mg single, geometric mean	–	0.0666 µg·h/mL
CN(C)N=Nc1[nH]cnc1C(N)=O	–	human patients, plasma	intravenous, 1000 mg/m^2 over 1 h, cycle 1 day 1, given alone	–	110 µg·h/mL
Cc1ccc(C(=O)N(CCCN)C(c2nc3snc(C)c3c(=O)n2Cc2ccccc2)C(C)C)cc1 (stereo not shown)	–	human patients, plasma	intravenous, 16 mg/day, day 3 after induction, geometric mean	–	1.29 µg·h/mL
CN1C(=O)[C@@H](NC(=O)c2nnc(Cc3ccccc3)[nH]2)COc2cccnc21	–	healthy human, fasted, plasma	oral, 200 mg single dose, geometric mean	–	32.1 µg·h/mL
O=C(O)CCC(=O)O.[2H]C([2H])([2H])Oc1cc(C)c2[nH]ccc2c1CN1CC[C@@H](C2CC2)C[C@H]1c1ccc(C(=O)O)cc1	LC-MS/MS, geometric mean	human, plasma	600 mg, single dose, fasting	–	227 µg·h/mL
CC1(COc2ccc3c(c2)ncn3-c2ccc3cccc(N4CCC(N)CC4)c3n2)COC1	–	human patients, recurrent/progressive HGG or DIPG, serum	oral, 100 mg/m^2, day 1, median	–	3.98 µM·h
N[C@@H](CC(=O)N1CCn2c(nnc2C(F)(F)F)C1)Cc1cc(F)c(F)cc1F	–	female human, plasma	oral, 100 mg single dose	–	3.68 ± 0.355 µg·h/mL
C[C@@H](Oc1ccc(S(C)(=O)=O)cc1C(=O)N1C[C@@H]2C[C@]2(c2cc(C(F)(F)F)on2)C1)C(F)(F)F	–	healthy human volunteers, fasted, plasma	oral, 10 mg single, adjusted geometric mean	–	3.91 µM·h
CNC(=O)c1c(C)oc2cc(Oc3ncnc4cc(OC)c(OC)cc34)ccc12	–	healthy human subjects, plasma	oral, 5 mg, arithmetic mean, with: dabigatran etexilate 150 mg	–	5.31 µg·h/mL
CN(CC#N)C(=O)C[C@H](Nc1nc2ccccc2[nH]1)c1cccc(C(F)(F)F)c1	–	human	intravenous infusion, 1 mg/kg, 5 mg/mL formulation	–	6.83 ± 1.95 µg·h/mL
Cn1cc(-c2ccc(S(=O)(=O)[C@@H]3C[C@@H](C(=O)NC4(C#N)CC4)N(C(=O)C4(C(F)(F)F)CC4)C3)c(C(F)(F)F)c2)cn1	noncompartmental analysis	human, plasma	oral, 50 mg, day 1, with food, geometric mean	–	6.15 µg·h/mL
C=CC(=O)NC1CCN(c2ncc3ncnc(Nc4ccc(Oc5ccc6c(c5)ncn6C)c(C)c4)c3n2)CC1	–	human male, plasma	oral, 60 mg single dose, geometric mean, with: carbamazepine multiple doses	–	4.5 µM·h
N[C@@H]1c2cccnc2[C@H](OC(=O)N2CCC(n3c(=O)[nH]c4ncccc43)CC2)CC[C@H]1c1cccc(F)c1F	–	human, plasma	oral, 75 mg single dose, alone, arithmetic mean, fluconazole DDI study	–	5.28 µg·h/mL
CCNCCCNC/C=C\CNCCCNCC	LC-MS/MS	human cancer patients, plasma	intravenous infusion 60 min, 150 mg, median, cycle 1	–	0.474 µg·h/mL
CO[C@H]1C[C@@H]2CC[C@@H](C)[C@@](O)(O2)C(=O)C(=O)N2CCCC[C@H]2C(=O)O[C@H]([C@H](C)C[C@@H]2CC[C@@H](OCCO)[C@H](OC)C2)CC(=O)[C@H](C)/C=C(\C)[C@@H](O)[C@@H](OC)C(=O)[C@H](C)C[C@H](C)/C=C/C=C/C=C/1C	–	human patients, plasma	oral, 5 mg single dose, with: vorolanib 100 mg	–	0.307 ± 0.168 µg·h/mL
CC(C)=CCC/C(C)=C/CC/C(C)=C/CC[C@@](C)(O)CCC1=C(C)C(=O)C(C)=C(C)C1=O	–	healthy human, plasma	oral, 400 mg, with: itraconazole 200 mg	–	11.9 µg·h/mL
C#C[C@]1(CO)O[C@@H](n2cnc3c(N)nc(F)nc32)C[C@@H]1O	–	human, plasma	oral, 30 mg, single dose, geometric mean	–	3.84 µM·h
Cn1cncc1[C@@](N)(c1ccc(Cl)cc1)c1ccc2c(c1)c(-c1cccc(Cl)c1)cc(=O)n2C	–	human patients	oral, 300 mg/m2, first dose, cycle 1, initial cohort, median	–	17.1 µg·h/mL
Nc1ccn([C@@H]2O[C@H](CO)[C@@H](O)C2(F)F)c(=O)n1	HPLC-UV	human, plasma	intravenous, 800 mg/m^2, median, before paricalcitol	–	16.3 µg·h/mL
CCN1CCN(Cc2ccc(Nc3ncc(F)c(-c4cc(F)c5nc(C)n(C(C)C)c5c4)n3)nc2)CC1	–	fasted healthy human subjects, plasma	oral, 200 mg, 2 × 100 mg capsules	–	3.94 µg·h/mL
N#C[C@H](C[C@@H]1CCCNC1=O)NC(=O)[C@H](CC1CC1)NC(=O)c1cc2cccc(Cl)c2[nH]1	–	human	700 mg twice daily, day 1	–	17 µg·h/mL
CC(=O)O[C@H]1C(=O)[C@@]2(C)[C@H]([C@H](OC(=O)c3ccccc3)[C@]3(O)C[C@H](OC(=O)[C@H](O)[C@@H](NC(=O)c4ccccc4)c4ccccc4)C(C)=C1C3(C)C)[C@]1(OC(C)=O)CO[C@@H]1C[C@@H]2O	noncompartmental analysis	human cancer patients, plasma	intravenous infusion, 80 mg/m^2, cycle 1 day 1, with: daily oral co-medication	–	4.59 µg·h/mL
CN(C(=O)C(C)(C)c1cc(C(F)(F)F)cc(C(F)(F)F)c1)c1cnc(N2C[C@H]3COCCN3C[C@H]2CO)cc1-c1ccc(F)cc1[14CH3]	LC-MS/MS	human, plasma	oral, 120 mg	–	6.62 µg·h/mL

Repeated from above:
Compound	test	test system	setting	how to read	AUC(0-inf)
FC(F)(F)c1ccc(CNc2ccc(Cc3c[nH]c4ncc(Cl)cc34)cn2)cn1	refers to: total radioactivity	healthy human male, plasma	oral, 400 mg [14C]-labelled	–	163 µg·h/mL
Cn1cncc1[C@@](N)(c1ccc(Cl)cc1)c1ccc2c(c1)c(-c1cccc(Cl)c1)cc(=O)n2C	–	human, plasma	oral, dose not given, with: omeprazole	–	0.372 µg·h/mL
Cn1c(=O)oc2ccc(-c3ccc(C[C@@H](C#N)NC(=O)[C@@H]4CNCCCO4)cc3)cc21	–	human, moderate renal impairment, plasma	oral, 25 mg single dose, geometric least squares mean	–	4.3 µg·h/mL
C=CC(=O)N(C)CCOc1c(N)ncnc1-c1cc(F)cc(NC(=O)c2ccc(C3CC3)cc2F)c1C	–	human, fed, whole blood	oral, 60 mg single dose, food effect study, mean	–	0.214 µg·h/mL
Nc1ccn([C@@H]2O[C@H](CO)[C@@H](O)[C@@H]2O)c(=O)n1	–	human	subcutaneous, 20 mg, cycle 1 day 2, given alone	–	0.0705 µg·h/mL
COC(=O)N[C@@H](C)CNc1nccc(-c2cn(C(C)C)nc2-c2cc(Cl)cc(NS(C)(=O)=O)c2F)n1	–	human, plasma	oral, 50 mg, with: posaconazole 400 mg twice daily	geometric mean	5.81 µg·h/mL
CC(C)[C@@H]1CC[C@@H](C)C[C@H]1OC(=O)O[C@@H](C)OC(=O)[C@H]1[C@@H]2C[C@H](F)[C@@](N)(C(=O)O)[C@@H]21	–	human, plasma	oral, 20 mg single dose, fasted	–	0.0869 µg·h/mL
